Results pooled from the literature.
Every numbered part comes from another study and shows a few of its results, in no order.

Study 1 — method: EMSA with sequencing; molecule type: double-stranded DNA, one strand shown; medium: in vitro; tested at: 10 and 20 nM; baseline: negative control set to 0; reading: higher = stronger binding; endpoint: normalised bound fraction
Target: Hepatocyte nuclear factor 3-alpha (Foxa1, Mus musculus, UniProt P35582, residues 1-468, full length assumed)
Chain of UniProt P35582 (whole entry, looked up): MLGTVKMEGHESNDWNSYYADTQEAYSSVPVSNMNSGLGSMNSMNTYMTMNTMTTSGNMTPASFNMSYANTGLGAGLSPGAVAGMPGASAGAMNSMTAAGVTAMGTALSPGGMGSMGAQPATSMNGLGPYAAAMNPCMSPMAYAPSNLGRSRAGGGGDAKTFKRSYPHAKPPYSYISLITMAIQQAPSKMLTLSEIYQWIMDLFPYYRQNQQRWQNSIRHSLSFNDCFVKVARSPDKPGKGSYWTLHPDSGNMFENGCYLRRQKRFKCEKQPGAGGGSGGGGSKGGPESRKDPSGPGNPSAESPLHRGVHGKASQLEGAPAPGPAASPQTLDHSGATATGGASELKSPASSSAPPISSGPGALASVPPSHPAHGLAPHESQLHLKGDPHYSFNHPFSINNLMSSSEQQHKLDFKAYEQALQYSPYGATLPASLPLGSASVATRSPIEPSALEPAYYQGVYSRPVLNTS
Notes: whole designed probe, mean of two concentrations, ends assumed
All sequences stand within: GTGAGCGGTGCCCATTGATGGGGAAC … TTTCACTGGGATCGTGGGGAC
CACAAAGCAACTAGACAAATATTGATTTTGTAGTTACTGTAAAGGATTGAACAAAAATATGAAGAGCAGAGTTTCTACTCAAATGTGATCAAAGTCAACACTGAGGATCTCACGAGATTAAAACAATGCTACTAACCTGGATAAGGTGGCATCCCCCGAAAGACTATTTTCTTACCCTTTTTTGTTTGTTTGA: 0.425 ratio
AAAGATGGCATGTTGTGATTATAAACCACAGAAGAAATCTCTAATTAGTCATCCTTCTCTGAAAAATTCATTAATACTGATTAAGCCTGCAGAGTCAACAGTGGAATTCTAGTCAAGCAGAACATTTATGGAGTGGCTTTGAAGGAGCTATGAATCGATTGTTCCCAGAAGAGCAGGTCTACCCTCCCAAGAA: 0.0807 ratio
GGAGTTATCAGGAGACATTTTATGGTGAACATGGATATAAGTTTGTTCCTGAAGGATGCAGGGAATTCAGTAACACAGAAAAACAGTTCAAAGTAATCTTGAACAAAACTCCAGAGATGGGTACACAGATGTGTAAAGATGGAGTTAGGTGGGCTACATGTAGATGATGAAGCCCACATATGTCACCAAAGCA: -0.0115 ratio
ATTCCAGGCAAAGCCAAATGACGATGCACCAGTGAGTCACCAGTGAGATTGCATTTAAAATCTAGCAGCCTCAGAGCCAAGACCAGCCTTGTGTAAACAGAGTTCAGGGAGGAGGGAAGATAGTGGAGTGAGACGTGCCGAGGCCAGCCGGCCTCTGGGCTTGGGGTGCGCTGACCTCTGGGGAGCCGAGTGC: 0.475 ratio
AATGAGCTAAGATTCCAACTTAAAAAATGTAAGAATAAACCTGGTGTATCATTCCCAAAGAAAAAGAGCAGTTTAGAAATAATAAGAGCACAATATTGACATAGAAAAGAAAGACACAGTAGAGAAGATCAACAAAACCAAGAACTGGTTCATAGAAAAATAGCAATAAAATAGACTTCAGGCAAAATTATCC: 0.301 ratio
CAAGTTTGTGGTCCAGGAGCAACAGGTTATGCCATACAGCCTAGGTGTGTAGTAGGCTACACACCGTCTATGTTTGTGTTGTACACTCTACAATGTTTGCACAATGATGAAACCATGACTCATTCTTCTCAGAACATACCCCTGTTGTTAAGCGATACATGACTGTACTTTTTTTAAAAAGTCCAAGGATATA: 0.452 ratio
TGTCCTGGAAGAAGTCCTTATGTGTATGATCTTACTGTAATACCCAGTCTTTATGGACCCATGGCAGTTGACCACTATACTTCATGTACAAAGTAATCTTAGGAATGGGAAATGGTATTACTTTGAAAATGGCAACGTGTCCCTAGACTGTTAAGGATCAAATAGTGATGCAAGCAGCATATGTGCTTTTTAA: -0.00934 ratio
CTCATTCCTTGCTTCCGCCAATAATCTGACTAGTAAAGAAGTCACTGCATGCCACAAATTGTCAGTGCTGACTTCCTCAACAAGGAAGTTATTAAATTACTTATTTAATATATGAGTGACTCAGATGCAAATTCCATCTTGAGAATACCAACTCCTGATGCCAACTGATTGTCAGTCATGGCTACAACAGGAG: -0.021 ratio

Study 2 — method: RNA Bind-n-Seq; molecule type: RNA; medium: in vitro; tested at: 1 µM; notes: whole 134-nt RNA, ends assumed; together with: 150 mM KCl; baseline: input library; reading: higher = stronger binding; endpoint: log2 enrichment
Target: Ras GTPase-activating protein-binding protein 1, C-terminal RGG region (G3BP1, Homo sapiens, UniProt Q13283)
Chain of UniProt Q13283 (whole entry, looked up): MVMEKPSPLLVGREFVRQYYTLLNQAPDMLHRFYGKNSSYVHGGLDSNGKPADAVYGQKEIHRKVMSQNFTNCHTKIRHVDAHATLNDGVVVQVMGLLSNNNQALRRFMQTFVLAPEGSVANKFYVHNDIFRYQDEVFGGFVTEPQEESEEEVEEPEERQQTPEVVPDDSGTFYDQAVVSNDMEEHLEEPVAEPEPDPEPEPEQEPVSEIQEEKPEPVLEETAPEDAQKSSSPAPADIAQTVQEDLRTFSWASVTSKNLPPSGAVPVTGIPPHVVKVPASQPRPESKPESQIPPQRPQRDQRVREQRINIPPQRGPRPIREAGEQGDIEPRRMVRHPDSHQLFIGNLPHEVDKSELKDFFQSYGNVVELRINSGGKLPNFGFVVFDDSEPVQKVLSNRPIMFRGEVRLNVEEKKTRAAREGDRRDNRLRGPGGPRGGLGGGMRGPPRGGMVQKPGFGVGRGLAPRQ
All sequences stand within: GGGAGUUCUACAGUCCGACGAUC … UGGAAUUCUCGGGUGUCAAGG
CUCAAGUCCUGUGCUACACAUCGUAUGUACCGAAUCGGGUGGGUGGGGUGGGGAAAGUAUUAUGUUACGCCGUUCGGAUCUGCACUUCCA: 1.36
CCUGUGCUACACAUCGUAUGUACCGAAUCGGGGUUUGGGGUUUUUGGGGAAAAAAAGGGGAAAGUAUUAUGUUACGCCGUUCGGAUCUGC: 0.899
CUCAAGUCCUGUGCUACACAUCGUAUGUACCGAAUCGGGCCGGCCGGGCCGGGAAAGUAUUAUGUUACGCCGUUCGGAUCUGCACUUCCA: -1.24
CUGUGCUACACAUCGUAUGUACCGAAUCGGCCCCCCCGGGGCCCCCCCGGGGCCCCCCCGGGAAAGUAUUAUGUUACGCCGUUCGGAUCU: -2.34
AGUCCUGUGCUACACAUCGUAUGUACCGAAUCGGUUUUUGGGUUUUUGGGUUUUUGGGAAAGUAUUAUGUUACGCCGUUCGGAUCUGCAC: -1.35
CAAGUCCUGUGCUACACAUCGUAUGUACCGAAUCGGGGCCCGGGGCCCGGGCCCGGAAAGUAUUAUGUUACGCCGUUCGGAUCUGCACUU: -2.09
CCUCAAGUCCUGUGCUACACAUCGUAUGUACCGAAUCGGGCGGGGCGGGCGGAAAGUAUUAUGUUACGCCGUUCGGAUCUGCACUUCCAG: 0.568
CUCAAGUCCUGUGCUACACAUCGUAUGUACCGAAUCGGGGCGGGGCGGGCGGGGAAAGUAUUAUGUUACGCCGUUCGGAUCUGCACUUCC: 1.83
AACAGACAACACGCACCCACACAGACACAGAGGGAAGGGGUUGGGAUGGGGACAGGGUGCACAGCAGGGCGGGGUAGGACCCCAGCCCCU: -0.35
UAACUUUAGAGGAGGAUCUGAUCGAUAUGGCAGUGGACGUGGAUUUGGGGAUGGCUAUAAUGGGUAUGGAGGAGGACCUGGAGGUGGCAA: -1.31
CUCAAGUCCUGUGCUACACAUCGUAUGUACCGAAUCGGGCCGGGCCGGGCCGGAAAGUAUUAUGUUACGCCGUUCGGAUCUGCACUUCCA: -1.5
UCCUGUGCUACACAUCGUAUGUACCGAAUCGGGAAAAAAGGAAAAAAGGAAAAAAGGGGAAAGUAUUAUGUUACGCCGUUCGGAUCUGCA: -1.83
UCAAGUCCUGUGCUACACAUCGUAUGUACCGAAUCGGUUUGGAAAAAGGUUUGGAAAGUAUUAUGUUACGCCGUUCGGAUCUGCACUUCC: -1.25
AGUCCUGUGCUACACAUCGUAUGUACCGAAUCGGGAAAGGGUUUUUUUGGGUUUGGGAAAGUAUUAUGUUACGCCGUUCGGAUCUGCACU: 0.179

Study 3 — method: universal PBM; molecule type: double-stranded DNA, one strand shown; medium: in vitro; tested at: not given; reading: higher = stronger binding; endpoint: E-score
Target: Sal-like protein 4, full length isoform B (SALL4, Homo sapiens, UniProt Q9UJQ4-2, residues 1-616)
Notes: 8-mer, flanks averaged, mean of replicates
Residues (chain): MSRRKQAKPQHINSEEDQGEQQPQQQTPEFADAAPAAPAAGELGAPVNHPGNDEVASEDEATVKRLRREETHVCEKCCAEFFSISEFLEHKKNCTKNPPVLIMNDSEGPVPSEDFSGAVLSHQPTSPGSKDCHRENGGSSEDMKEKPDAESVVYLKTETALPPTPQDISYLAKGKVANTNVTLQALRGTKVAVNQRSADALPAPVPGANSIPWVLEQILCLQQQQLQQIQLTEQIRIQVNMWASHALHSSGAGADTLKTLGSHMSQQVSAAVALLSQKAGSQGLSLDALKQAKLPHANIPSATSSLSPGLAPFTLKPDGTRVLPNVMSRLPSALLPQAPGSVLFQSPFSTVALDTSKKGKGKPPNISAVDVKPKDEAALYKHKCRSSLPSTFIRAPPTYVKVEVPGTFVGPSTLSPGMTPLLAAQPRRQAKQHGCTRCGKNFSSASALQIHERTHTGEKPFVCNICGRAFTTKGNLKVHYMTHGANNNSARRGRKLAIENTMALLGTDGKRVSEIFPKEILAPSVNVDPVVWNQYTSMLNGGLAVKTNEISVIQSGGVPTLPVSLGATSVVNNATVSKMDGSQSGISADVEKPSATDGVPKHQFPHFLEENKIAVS
ACGATCCC: -0.179
CGCGCGGA: -0.331
GACACGCA: -0.0317
CTGCTAAA: -0.042
CAGAAGGC: -0.224
AAGTGGGA: 0.142
ACTTATCA: 0.101
CATTGGAG: -0.00684
ACGCACGG: -0.224
CGATGGTA: -0.00189
CCACAACC: -0.0318
AATCGCAC: 0.0402
CCCTGCGA: -0.139
CAGCCGAG: -0.22
TCGTAGCA: 0.0965
TCAACGCA: 0.0174
GGCCCGCC: -0.274
GTTTCTGA: -0.0836

Study 4 — method: RNA Bind-n-Seq; molecule type: RNA; medium: in vitro; tested at: 365 nM; baseline: no-protein control; reading: higher = stronger binding; endpoint: RBNS enrichment (R)
Target: RNA binding protein fox-1 homolog 2, RRM domain, GST-SBP tag (RBFOX2, Homo sapiens, UniProt O43251-10, residues 100-194)
Notes: natural RNA segment, single round, ends assumed
All sequences stand within: GGGAGUUCUACAGUCCGACGAUC … UGGAAUUCUCGGGUGCCAA
Target sequence (chain): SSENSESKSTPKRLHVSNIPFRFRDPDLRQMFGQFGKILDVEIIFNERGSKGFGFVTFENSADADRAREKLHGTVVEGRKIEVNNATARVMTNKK
UUUUUGGAAAUUUCCAUCAUCCUCAAGUCACGCAAAUACCAAUUUCACAUCGGAGCUGCGUGUGAAAUGGAUUCAGCAUUCCGCGCCCUUGCUUUACAAUUUUAGUCCUG: 0.345
CAAACACUGGCCUUCUGUUCCUCUUGAAAUUUACCUCCCAACUUGUUCAUCUCUGCCUUUGGACUAAAUAGGGGCAUCUGUGCAAAACUGUAGAAGCCAUUUUGAAGGAU: 0.481
CCACUUUGAGAGAUGGCUUGUGUUAGGCUGAAACUGAUAGAAACGUUAACUGCUGCAGCUCUCUUUGGGCCACCCUAGUGUUUGUGAUUCAUGCUUGAAGUAACCUUGCC: 1.54
GACUUCCACAGAUUCUACUUCGAGAACGUGCUGGCCAAGAACAGCAAGCCGAUCCACACGACCAUCCUGAACCCACACGUGCACGUCAUUGGAGAGGAUGCCGCCUGCAU: 4.9
ACUUGCACCUGAUCAAGAGCAGUGCUGCUCCAUUUGUUUUGCAAAGAUAUGUUUUCAUUUCCUGUAUGUUCCAUUCCCUCUGAAGUCCCUUGGCCUGAUUUUAUCCAUUU: 0.791
UGUAGAGGGAUGUCCCAAGCUUGUUUUCCAAUCAGUGUUAAGCUGUUUGAAACUCUCCUGUGUCUGUGUUUUGUUUGUGCGUGUGUGUGAGAGCACAUCAGUGUGUGCAG: 12.3
UCUUCCGGGGCUUGUUGCCAUUCCCCUAGAUGCUGGAGAAAGCCUGGGCCAGCCUGUAGCCUGACCGCACUAGUGGUCGCCCAGUCCCCAUCUCUGUGGCCCUCUGAAGC: 0.235
AAGCUUGAAUAUUGUUUUUGCACCAGAGGAGAAGUGAGGAAAUUCGGAGCUAUACGUGUGUGCAGAGGGUUGCUACCUAUGGGUUUACGCUUAAUUUUAAUUGGGAGAAA: 0.948
AUGUUACUGCGUUCUGUGUCGGAAAGUAUAGUAUGCUCUAAGCAGUAGGCCUCUUGACUUUCUUACAUGACUUUCUGCUAAACUACUUUUCAUUUUAAGGGCACACGCAG: 0.663
CCAGUGUUUUUAAGAGAAUGUUUCUUAAAACCAAUAGGAAACUUAAGCGAGGUUUCAUGACACAACCUUUCAUGUCGUGAAAGGCAGAGGGUGACUGUGUGUGAUGUGCA: 5.92
CAUUGCUGCUGCAAGUCUGGCUCUUUGCCUCUGCUGUGCCAGGCCUCCAUGGUGUCUGCAUAGAGCCACGACAGAGGCAUUCCUCAGCUGUACCUCUGACUUUCUUGGCU: 0.172
CAGCUUCUACAACAAUCCCCACAAAAGAUGAACAGCCAUUAGAAGCCUCCCCUCCUUUUGAUGCUCAGCCCACUGUGAAGAGUGAGCUUGUUUUGUAAGCCACAUUGGUU: 0.321

For quick reference, copied from above (study 3):
CGCGCGGA: -0.331
GACACGCA: -0.0317
CTGCTAAA: -0.042
CAGAAGGC: -0.224
AAGTGGGA: 0.142
ACTTATCA: 0.101
CATTGGAG: -0.00684
